Measurements from different studies.
Values joined by “and” are separate records of one study, mostly repeats; a detail may differ. Numbers after ± are the reported error.

| SMILES | test | test system | setting | Cmax |
| --- | --- | --- | --- | --- |
| COC(=O)C(c1ccccc1Cl)N1CCC(S)C(=CC(=O)O)C1 (centres unmarked) | – | human patients, CYP3A4 wt/wt, plasma | oral, 75 mg clopidogrel daily, day 7, median | 0.00515 µg/mL |
| Cc1ccc(NC(=O)c2ccc(CN3CCN(C)CC3)cc2)cc1Nc1nccc(-c2cncc(-c3oncc3C)c2)n1 | – | older healthy human adults, plasma | oral, 37.5 mg single dose, fed, mean | 1.35 µg/mL |
| N[C@]1(C(=O)O)[C@H]2[C@@H](C[C@@H]1F)[C@@H]2C(=O)O | – | human, fed, plasma | oral, 5 mg multiple, day 14 | 0.0199 µg/mL |
| N#CCNC(=O)c1ccc(-c2ccnc(Nc3ccc(N4CCOCC4=O)cc3)n2)cc1 | – | human, plasma | oral, 200 mg momelotinib once daily, cycle 1 day 15, mean, together with: trametinib 1.0 mg once daily | 0.645 µg/mL |
| COc1cc(Nc2ncc3c(n2)-c2ccc(Cl)cc2C(c2c(F)cccc2OC)=NC3)ccc1C(=O)O | – | human patients, plasma | oral, 40 mg single dose, single agent run-in | 0.706 ± 0.268 µg/mL |
| O=C(O)CCCCCCCNC(=O)c1ccccc1O | – | human moderate renal impairment, plasma | oral, dose not given, after tenth daily dose, geometric mean | 0.735 µM |
| CCCCC1(CCCC)CN(c2ccccc2)c2cc(SC)c(OCC(=O)N[C@@H](C(=O)NCC(=O)O)c3ccccc3)cc2S(=O)(=O)C1 | LC-MS/MS | human, plasma | oral, 10 mg, single dose, before breakfast | 0.000344 µg/mL |
| COc1c(OCCCN2CCOCC2)ccc2c1N=C(NC(=O)c1cnc(N)nc1)N1CCN=C21 | – | human cancer patients, plasma | intravenous, 0.6 mg/kg weekly, cycle 1 day 1, compound alone, geometric mean | 0.403 µg/mL |
| CC(C)(Sc1ccncc1-c1ccc(C#N)c2ccccc12)C(=O)O | – | human, male, plasma | oral, 2.5 mg once daily, day 14, together with: febuxostat 80 mg once daily | 0.00494 µg/mL |
| CS(=O)(=O)n1cc2c(n1)CN([C@H]1CO[C@H](c3cc(F)ccc3F)[C@@H](N)C1)C2 | – | healthy male human, plasma | oral, 100 mg once weekly, day 1, fasted, geometric mean | 2.32 µM |
| CCOc1ccc(Cc2cc([C@]34OC[C@](CO)(O3)[C@@H](O)[C@H](O)[C@H]4O)ccc2Cl)cc1 | – | healthy human, plasma | oral, 15 mg, 20% glucose solution, together with: glimepiride 1 mg | 0.147 µg/mL |
| O=CC[C@@H](O)[C@H](O)[C@H](O)CO | HPLC-fluorescence | human patients, plasma | oral, 45 mg/kg/day, cycle 1 | 449 µM |
| CCCCCCCCCCCCCCC[C@H](O)[C@@H](N)CO | – | human, phase I, plasma | intravenous, 840 mg/m^2, day 1, monotherapy | 23.5 µM |
| C=CC(=O)N1CCC(CNc2ncnc(N)c2-c2ccc(Oc3ccccc3)cc2)CC1 | – | human, plasma | 75 mg once daily, day 14, multiple dose, geometric mean | 0.252 µg/mL |
| CC(=O)O[C@H]1C(=O)[C@@]2(C)[C@H]([C@H](OC(=O)c3ccccc3)[C@]3(O)C[C@H](OC(=O)[C@H](O)[C@@H](NC(=O)c4ccccc4)c4ccccc4)C(C)=C1C3(C)C)[C@]1(OC(C)=O)CO[C@@H]1C[C@@H]2O | – | human, plasma | intravenous, 175 mg/m², cycle 1, no ritonavir, together with: carboplatin | 4.7 ± 0.6 µM |
| CC(C)(C(=O)NCC(F)(F)C(F)(F)F)C(=O)N[C@@H]1C(=O)Nc2ccccc2-c2ccccc21 | – | human, plasma | oral, 20 mg, day 15, together with: bevacizumab | 0.245 µg/mL |
| COc1ccnc(C[S+]([O-])c2nc3ccc(OC(F)F)cc3[nH]2)c1OC (centres unmarked) | – | human, CYP2C19 ultrarapid metabolizers, plasma | oral, 40 mg/day, day 1 | 4.31 µg/mL |
| O=C(c1ccc(OCCN2CCCCC2)cc1)c1c(-c2ccc(O[C@@H]3O[C@H](C(=O)O)[C@@H](O)[C@H](O)[C@H]3O)cc2)sc2cc(O)ccc12 | – | human, plasma | oral, 60 mg raloxifene, acute green tea | 0.0579 µM |
| Cc1nc(-c2ccc(OCC(C)C)c(C#N)c2)sc1C(=O)O | – | human, plasma | oral, 40 mg, together with: verinurad 20 mg | 0.688 µg/mL |
| C=CC(=O)N1C[C@H](Nc2ncnc3[nH]ccc23)CC[C@@H]1C | adjusted geometric mean | human, plasma | oral, 50 mg single dose, together with: rifampicin 600 mg once daily for 8 days | 0.204 µg/mL |
| COc1cc2ncnc(Nc3ccc(F)c(Cl)c3)c2cc1OCCCN1CCOCC1 | – | human, plasma | oral, 250 mg, together with: vorinostat 200 mg | 0.344 ± 0.044 µg/mL |
| Cc1[nH]c(/C=C2\C(=O)Nc3ccccc32)c(C)c1CCC(=O)O | – | human patients | oral, 400 mg/m^2 twice daily, after meal, dose 55 | 8.58 ± 4.55 µg/mL |
| CN1C(=O)[C@@H](NC(=O)c2nnc(Cc3ccccc3)[nH]2)COc2ccccc21 | – | human male, plasma | oral, 120 mg twice daily, day 14 | 1.44 µg/mL |
| COc1cc(OC)c(/C=C/S(=O)(=O)Cc2ccc(OC)c(NCC(=O)O)c2)c(OC)c1 | – | human, patients with urinary symptoms, urine | oral, 560 mg | 2.49 µg/mL |
| CS(=O)(=O)n1cc2c(n1)CN([C@@H]1C[C@H](N)[C@@H](c3cc(F)ccc3F)O[C@@H]1C(F)(F)F)C2 | – | human | oral, 25 mg every two weeks, steady state | 0.822 µg/mL |
| C/C(=C\c1csc(C)n1)[C@@H]1C[C@@H]2O[C@]2(C)CCC[C@H](C)[C@H](O)[C@@H](C)C(=O)C(C)(C)[C@@H](O)CC(=O)N1 | – | human, plasma | intravenous infusion, 70 mg, 3 h infusion | 0.486 µg/mL and 0.273 µg/mL and 0.287 µg/mL and 0.201 µg/mL and 0.433 µg/mL and 0.277 µg/mL and 0.266 µg/mL and 0.187 µg/mL |
| CCOc1cc([C@@H](CS(C)(=O)=O)N2C(=O)c3cccc(NC(C)=O)c3C2=O)ccc1O[C@@H]1O[C@H](C(=O)O)[C@@H](O)[C@H](O)[C@H]1O | – | healthy human controls, plasma | oral, 30 mg apremilast, matched to severe impairment | 0.198 µg/mL |

| SMILES | test | test system | setting | Cmax |
| --- | --- | --- | --- | --- |
| CCCc1nn(C)c2c(=O)[nH]c(-c3cc(S(=O)(=O)N4CCN(C)CC4)ccc3OCC)nc12 | – | healthy male human, plasma | oral, dose not given, day 8, adjusted geometric mean, together with: sacubitril/valsartan | 0.168 µg/mL |
| C#C[C@]1(CO)O[C@@H](n2cnc3c(N)nc(F)nc32)C[C@@H]1O | – | human, plasma | oral, 10 mg once weekly, week 3 | 0.241 µM |
| C[C@H]1CNCCCN1S(=O)(=O)c1cccc2cncc(F)c12 | – | human, male, plasma | ocular instillation, 1 drop per eye twice daily, day 8, geometric mean, together with: brimonidine fixed-dose combination | 0.000346 µg/mL |
| CC(C)(Sc1ccncc1-c1ccc(C#N)c2ccccc12)C(=O)O | – | human, plasma | oral, 5 mg, together with: febuxostat 40 mg | 0.0072 µg/mL |
| CS(=O)(=O)Nc1ccc(C(=O)O[C@@H](Cc2c(Cl)c[n+]([O-])cc2Cl)c2ccc(OC(F)F)c(OCC3CC3)c2)cc1OCC1CC1 | – | human, plasma | inhaled, 1600 µg once daily, day 1, single-dose dry powder inhaler | 0.00071 µg/mL |
| CCOc1ccc(Cc2cc([C@@H]3O[C@H](SC)[C@@H](O)[C@H](O)[C@H]3O)ccc2Cl)cc1 | – | human, plasma | oral, 300 mg, range of daily means | 0.23 to 0.307 µg/mL |
| C[C@H](N)C(=O)N1C[C@H](CCCB(O)O)[C@](N)(C(=O)O)C1 | – | human patients, plasma | oral, 150 mg single dose, cycle 1 day 1 | 2.08 ± 0.632 µg/mL |
| CCc1nc(C(N)=O)c(Nc2ccc(N3CCC(N4CCN(C)CC4)CC3)c(OC)c2)nc1NC1CCOCC1 | – | human, mild hepatic impairment, plasma | oral, 10 mg, single dose, fasted, geometric LS mean | 0.00814 µg/mL |
| CCOCCn1c(C2CCN(CCc3ccc(C(C)(C)C(=O)O)cc3)CC2)nc2ccccc21 | – | healthy human subjects, plasma | oral, 20 mg, geometric LS mean | 0.135 µg/mL |
| NCCCS(=O)(=O)O | – | human, plasma | oral, 100 mg loose-filled capsule, single dose | 0.769 ± 0.228 µg/mL |
| CN1CCc2nc(C(=O)N[C@@H]3C[C@@H](C(=O)N(C)C)CC[C@@H]3NC(=O)C(=O)Nc3ccc(Cl)cn3)sc2C1 | – | healthy humans ABCB1 rs1045642 CT, plasma | oral, 60 mg single dose | 0.268 ± 0.0952 µg/mL |
| CC(C)(Sc1ccncc1-c1ccc(C#N)c2ccccc12)C(=O)O | – | human, male, Japanese, plasma | oral, 5 mg, day 6, fed, single dose | 0.00921 µg/mL |
| C=C(C)[C@@H]1CC[C@]2(NCCN3CCS(=O)(=O)CC3)CC[C@]3(C)[C@H](CC[C@@H]4[C@@]5(C)CC=C(C6=CC[C@@](CF)(C(=O)O)CC6)C(C)(C)[C@@H]5CC[C@]43C)[C@@H]12 | – | human | oral, 320 mg once daily, day 14, multiple ascending dose | 2.16 µg/mL |
| CC(C)(/C=C(\C#N)C(=O)N1CCC[C@@H](n2nc(-c3ccc(Oc4ccccc4)cc3F)c3c(N)ncnc32)C1)N1CCN(C2COC2)CC1 | – | human, plasma | oral, 100 mg single dose, median | 0.023 µg/mL |
| CN1CC[C@H](c2c(O)cc(O)c3c(=O)cc(-c4ccccc4Cl)oc23)[C@H](O)C1 | HPLC-MS/MS | human, plasma | intravenous, 40 then 40 mg/m^2, 30 min bolus then 4 h infusion, cycle 1, mean, together with: irinotecan 180 mg/m^2 | 2.15 µM |
| O=C(CCCCCCC(=O)Nc1ccccc1)NO | – | human patients, serum | oral, 100 mg twice daily, day 5, together with: FOLFOX | 0.702 µM |
| CN1CCN(c2ccc3nc(-c4c(N)c5c(F)cccc5[nH]c4=O)[nH]c3c2)CC1 | – | human, plasma | oral, day 29, normalised to 200 mg dose, together with: erlotinib | 0.219 ± 0.112 µg/mL |
| NS(=O)(=O)OC[C@@H]1C[C@@H](n2ccc3c(N[C@H]4CCc5ccccc54)ncnc32)C[C@@H]1O | – | human | intravenous, 20 mg/m^2, day 1 | 0.178 µg/mL |
| CCn1c(=O)c2c(nc(/C=C/c3ccc(OC)c(OC)c3)n2C)n(CC)c1=O | – | healthy human, plasma | oral, 40 mg single dose, arithmetic mean, together with: rifampin 600 mg/day steady state | 0.0978 µg/mL |
| CNC(=O)c1ccc(-c2cnc3ncc(Cc4ccc5ncccc5c4)n3n2)cc1F | – | healthy human subjects, plasma | oral, 400 mg, arithmetic mean, alone | 3.33 µg/mL |
| COc1ccc2nc([S@@+]([O-])Cc3ncc(C)c(OC)c3C)[nH]c2c1 | – | human, CYP2C19 poor metabolizers, plasma | oral, 40 mg/day, day 5 | 3.61 ± 2.45 µg/mL |
| COCCCCn1c(C(=O)N(CC(C)C)[C@@H]2CNC[C@H](C(=O)N3CCOCC3)C2)nc2ccccc21 | – | non-elderly human, plasma | oral, 160 mg once daily, day 1 | 2.02 µg/mL |
| CNCc1ccc(-c2[nH]c3cc(F)cc4c3c2CCNC4=O)cc1 | – | human patients, plasma | oral, 500 mg once daily, day 1, single dose, arithmetic mean | 0.949 µg/mL |
| Cc1cccc(C)c1OCC(=O)N[C@@H](Cc1ccccc1)[C@@H](O)C[C@H](Cc1ccccc1)NC(=O)[C@H](C(C)C)N1CCCNC1=O | – | human, HIV+/HCV+ with cirrhosis, plasma | oral, dose not given, total drug, steady state, median, together with: lopinavir/ritonavir twice daily | 10.2 µg/mL |
| C=CCNC1=C2C[C@@H](C)C[C@H](OC)[C@H](O)[C@@H](C)/C=C(\C)[C@H](OC(N)=O)[C@@H](OC)/C=C\C=C(/C)C(=O)NC(=CC1=O)C2=O | – | human, plasma | intravenous infusion, 450 mg/m^2, day 1, 3 h infusion | 15.2 µM |
| O=C(CCCCCCC(=O)Nc1ccccc1)NO | LC-MS/MS | human, serum | oral, 200 mg, day 1, first dose median | 0.161 µg/mL |
